Experimental data pooled from the literature.
Compare with care: the assays were run in different laboratories. ± marks the error that the study gave. Values after ≈ are worked out from the molar mass of the structure shown.

Under “serious adverse events”, `COCC1CN(C2CCN(c3cc(OC)c(Nc4ncc(Br)c(Nc5ccc6c(c5P(C)(C)=O)OCCO6)n4)cc3C)CC2)C1` is recorded as 75% (first-in-human trial; human; oral, 240 mg once daily; treatment-related).
`CCC[C@H]1CC[C@H](c2ccc(NC(=S)NC[C@@H]3[C@@H](O)[C@@H](O)[C@H]4[C@H](O)CCCN43)cc2)CC1` gave an AST of 223 ± 157 U/L (NOD-SCID mouse, serum; ip, 30 mg/kg).
The MRT(0-last) of `C=C(NC(=O)c1csc(-c2nc3c(cc2O)-c2nc(cs2)C(=O)NC(C(C)O)C(=O)NC(=C(C)OC)c2nc(cs2)C(=O)NC2c4nc(cs4)C(=O)NC(COC(=O)c4c5c6c(cccc6n4O)COC(=O)C(OC4CC(C)(O)C(N(C)C)C(C)O4)C2OC5)c2nc-3cs2)n1)C(N)=O` (stereo not drawn) is reported as 1.46 h (Sprague-Dawley rat, both sexes, plasma; intravenous infusion, 6 mg/kg, multiple doses, day 1).
With `Cc1nc(N)nc2c1C(=O)N[C@@H](c1ccc(F)cc1-c1cccc(O[11CH3])n1)C2` the SUV was 0.3 ± 0.1 (ex vivo biodistribution; mice, U87 subcutaneous xenograft, plasma; 60 min post-injection, baseline, vehicle pre-treatment).
Under “subjects with TEAEs”, `CC(C)(O)c1ncc([S@](N)(=O)=NC(=O)Nc2c3c(cc4c2CCC4)CCC3)s1` is recorded as 33% (item: musculoskeletal, connective tissue; healthy human; oral, 30 mg, 14 days, CS formulation, once daily).
`C[C@@H](C(=O)O)c1ccc(-c2ccccc2)c(F)c1` — result for “relative change of HPLC peak area”: 0.98% (HPLC; solution; concentration not given, 2 h, room temperature).
With `O=c1c2ccccc2[se]n1CCCCCCn1[se]c2ccccc2c1=O` the solubility was 17.3 ± 0.32 mg/mL (≈ 36.2 mM) (shake-flask, RP-HPLC; DMF; 24 h, 25 °C).
`C=CC(=O)Nc1cc(Nc2nccc(-c3cn(C4CC4)c4ccccc34)n2)c(OC)cc1N(C)CCNC` has a relative error of 10.7% (freeze-thaw stability; rat plasma; 40 ng/mL, three freeze-thaw cycles; baseline: nominal concentration).
Under “cysteine adduct formation”, `C#CC(C)NC(=O)C(CC(C)(C)F)NC(c1ccc(-c2ccc(S(C)(=O)=O)cc2)cc1)C(F)(F)F` (stereo not drawn) is recorded as less than 1% (PBS; 100 µM, 23 h, pH 7.45, 37 °C, together with: cysteine 10 mM).
The half-life of `O=C(c1ccccc1)N1C(c2ccc(OCC3CCN(CCCF)C3)cc2)c2ccc(O)cc2CC12CC2` (stereo not drawn) is reported as 3.58 h (C57BL/6J mouse, plasma; intraperitoneal, 25 mg/kg).
`CCCCN1C(=O)c2cccc3c(NCCCCCN4CCOCC4)ccc(c23)C1=O` has a fluorescence lifetime of 10.4 ns (dichloromethane).
The tumour-to-heart ratio of `COc1cccc(OC)c1-c1cc(C(=O)NC2(C(=O)O)C3CC4CC(C3)CC2C4)nn1-c1ccc(C(=O)NCCNC(=O)[C@H](CCCCNC(=O)[C@H](CC(C)C)NC(=O)C2OC2C(=O)O)NC(=O)CN2CCN(CC(=O)[O-])CCN(CC(=O)[O-])CCN(CC(=O)[O-])CC2)cc1C(C)C.[177Lu+3]` (mixture of isomers) is reported as 6.48 (mouse, HT-29 xenograft; 4 h post injection, biodistribution; baseline: tumour over heart uptake).
`COc1ccc(Nc2nc(Nc3ccc(OCCOCCOCC[18F])cc3)ncc2Br)cc1` has an uptake ratio of 1.34 (ICR mice, S180 tumour; intravenous, 370 kBq, 30 min; baseline: tumour over blood).
`N=C(N)NCCC[C@@H]1NC(=O)[C@H](CO)NC(=O)[C@@H](NC(=O)[C@H](CO)NC(=O)[C@H](CO)NC(=O)[C@H](Cc2c[nH]c3ccccc23)NC(=O)CNC(=O)[C@H](CO)NC(=O)[C@@H](N)Cc2c[nH]c3ccccc23)CSSC[C@@H](C(=O)NCC(=O)O)NC(=O)[C@H](CO)NC1=O`: “volume of distribution (Vz)” 541 L (patients, plasma; intravenous, 5 mg/kg, thrice weekly, geometric mean).
The Cmin of `C[C@H](CCC(=O)NCC(=O)O)[C@H]1CC[C@H]2[C@@H]3[C@H](O)C[C@@H]4C[C@H](OS(=O)(=O)O)CC[C@]4(C)[C@H]3CC[C@]12C` is reported as 22.7 ± 8.3 nM (human, plasma; baseline).
With `C=Cc1c(C)c2cc3nc(c(CC(=O)O)c4[nH]c(cc5nc(cc1[nH]2)C(C)=C5CC)c(C)c4C(=O)O)[C@@H](CCC(=O)OCCOCCOCCOC)[C@@H]3C` the compound loss was 2% (LC-MS; methanol-water 9:1; 5 min, pH 8.0).
For `O=C(Nc1cnccc1-c1ccc([18F])cc1)c1ccnc(NC(=O)C2CC2)c1`, the SUV was 0.24 (FVB/NJ mouse, both sexes, brain; intravenous, 15 min).
`O[C@@H]1[C@@H](O)[C@H](n2cc(-c3ccc(-c4nncnn4)cc3)nn2)O[C@H](C[18F])[C@H]1O`: “tumour to blood ratio” 0.75 (PET imaging; BALB/c nude mouse, LS174T xenograft, tumour, heart as blood; intravenous, 1 h, together with: CC49-TCO 72 h before; baseline: tumour over heart).
The oral bioavailability of `COC1C=COC2(C)Oc3c(C)c(O)c4c(c3C2=O)C2=NC3(CCN(CC(C)C)CC3)NC2=C(NC(=O)C(C)=CC=CC(C)C(O)C(C)C(O)C(C)C(OC(=O)Nc2cscn2)C1C)C4=O` (stereo not drawn) is reported as 53% (CD-1 mouse, female, plasma; oral, 10 mg/kg).
The tumour-to-heart ratio of `COc1cccc(OC)c1-c1cc(C(=O)NC2(C(=O)O)C3CC4CC(C3)CC2C4)nn1-c1ccc(C(=O)N(C)CCOCCOCCN(C)C(=O)[C@H](CCCCNC(=O)[C@H](CC(C)C)NC(=O)C2OC2C(=O)O)NC(=O)CN2CCN(CC(=O)[O-])CCN(CC(=O)[O-])CCN(CC(=O)[O-])CC2)cc1C(C)C.[177Lu+3]` (mixture of isomers) is reported as 19 (mouse, HT-29 xenograft; 72 h post injection, biodistribution; baseline: tumour over heart uptake).
With `CC(=O)c1c(C)c2cnc(Nc3ccc(N4CCNCC4)cn3)nc2n(C2CCCC2)c1=O` the AUC(0-t) was 46300 ng·h/mL (G-Smo medulloblastoma mice (hGFAP-Cre x SmoM2), forebrain; intraperitoneal, 25 mg/kg single, dosed at postnatal day P10).
With `Fc1cncc(-c2ccc3[nH]c4ncnc(N[C@H]5CC[C@H](N6CCOCC6)CC5)c4c3c2)c1` the AUC(0-t) was 160 ± 122 ng·h/mL (ICR mice, plasma; intravenous, 1 mg/kg).
`COC(=O)C(C)n1nc(Cn2cc3cc(OCC[18F])c(Cl)cc3n2)c2ccccc2c1=O` (racemic) gave a radiometabolite of 33% (rat, brain; 60 min).
The recovery of `C=CC(=O)Nc1cc(Nc2nccc(-c3cn(C)c4ccccc34)n2)c(OC)cc1N(C)CCNC` is reported as 94.9% (storage stability; human plasma; 5 h, on ice, medium QC level).
Under “subjects with adverse event”, `CN1CCC[C@]1(C)/C=C/S(=O)(=O)NC(=O)Nc1c2c(cc3c1CCC3)CCC2` is recorded as 16.7% (item: transaminases increased, probably related; human; oral, 100 mg twice daily, 14 days, multiple ascending dose).
`O=C(O)CCCOc1ccc([18F])cc1-c1cc(-c2ccccc2C(F)(F)F)n(-c2ccccc2)n1` — result for “absorbed radiation dose”: 6.06 µGy/MBq (OLINDA/EXM extrapolation from mouse; human adult, breast).
`O=C(Nc1cnccc1-c1ccc([18F])nc1)c1ccnc(NC(=O)C2CC2)c1` has a mean SUV of 0.075 (ex vivo gamma counting; FVB/NJ mice, both sexes, brain stem; intravenous, 120 min, together with: tariquidar 15 mg/kg iv).

A few entries again:
With `Fc1cncc(-c2ccc3[nH]c4ncnc(N[C@H]5CC[C@H](N6CCOCC6)CC5)c4c3c2)c1` the AUC(0-t) was 160 ± 122 ng·h/mL (ICR mice, plasma; intravenous, 1 mg/kg).
The half-life of `O=C(c1ccccc1)N1C(c2ccc(OCC3CCN(CCCF)C3)cc2)c2ccc(O)cc2CC12CC2` (stereo not drawn) is reported as 3.58 h (C57BL/6J mouse, plasma; intraperitoneal, 25 mg/kg).
The oral bioavailability of `COC1C=COC2(C)Oc3c(C)c(O)c4c(c3C2=O)C2=NC3(CCN(CC(C)C)CC3)NC2=C(NC(=O)C(C)=CC=CC(C)C(O)C(C)C(O)C(C)C(OC(=O)Nc2cscn2)C1C)C4=O` (stereo not drawn) is reported as 53% (CD-1 mouse, female, plasma; oral, 10 mg/kg).
`COC(=O)C(C)n1nc(Cn2cc3cc(OCC[18F])c(Cl)cc3n2)c2ccccc2c1=O` (racemic) gave a radiometabolite of 33% (rat, brain; 60 min).
